Published values of several laboratories.
Each numbered part is a random draw from the data of one study; scales do not carry over between parts. Changes are numbered by the printed parent chain.

Block 1 — technique: RNA Bind-n-Seq; form: RNA; matrix: in vitro; tested at: 200 nM; notes: whole 134-nt RNA, ends assumed; with: 150 mM LiCl; reference: input library; direction: higher = stronger binding; each molecule: 7-deaza-guanosine replaces G
Target: Ras GTPase-activating protein-binding protein 1, full length (G3BP1, Homo sapiens, UniProt Q13283)
UniProt Q13283, sequence (whole entry, looked up): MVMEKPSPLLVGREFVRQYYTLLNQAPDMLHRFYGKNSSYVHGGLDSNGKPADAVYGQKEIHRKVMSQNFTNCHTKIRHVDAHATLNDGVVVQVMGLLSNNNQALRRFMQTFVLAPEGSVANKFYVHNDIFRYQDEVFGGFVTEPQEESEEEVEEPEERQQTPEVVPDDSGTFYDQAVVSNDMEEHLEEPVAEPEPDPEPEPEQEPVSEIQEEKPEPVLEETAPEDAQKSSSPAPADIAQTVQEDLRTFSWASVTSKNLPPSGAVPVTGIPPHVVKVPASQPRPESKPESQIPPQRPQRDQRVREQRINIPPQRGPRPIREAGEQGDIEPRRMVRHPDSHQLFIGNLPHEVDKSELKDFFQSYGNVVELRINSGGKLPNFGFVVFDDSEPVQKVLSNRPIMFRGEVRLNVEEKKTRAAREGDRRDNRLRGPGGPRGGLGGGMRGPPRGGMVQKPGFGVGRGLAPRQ
Sequence	log2 enrichment
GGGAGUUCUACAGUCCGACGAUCACCAUGCAGGUGCGCAUCUUUGGGAAGUGGGGCAAGGGGGGGAUAGGGAGGGGGGUAACACUUUGGGAACAGGUGGUCCCAGGUCGUUUCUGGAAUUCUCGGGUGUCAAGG	0.268
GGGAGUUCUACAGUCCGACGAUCCUCAAGUCCUGUGCUACACAUCGUAUGUACCGAAUCGGUUUUUGGAAAGGUGGAAAGUAUUAUGUUACGCCGUUCGGAUCUGCACUUCCAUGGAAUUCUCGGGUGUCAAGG	-0.0538
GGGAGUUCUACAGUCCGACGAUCUAACUUUAGAGGAGGAUCUGAUGGAUAUGGCAGUGGACGUGGAUUUGGGGAUGGCUAUAAUGGGUAUGGAGGAGGACCUGGAGGUGGCACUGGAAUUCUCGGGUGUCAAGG	0.617
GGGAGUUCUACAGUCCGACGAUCUAACUUUAGAGGAGGAUCUGAUGGAUUUGGCAGUGGACGUGGAUUUGGGGAUGGCUAUAAUGGGUAUGGAGGAGGACCUGGAGGUGGCAAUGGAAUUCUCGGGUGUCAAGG	-0.144
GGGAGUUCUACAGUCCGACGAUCGUCCUGUGCUACACAUCGUAUGUACCGAAUCGGGAAAAAAAGGGAAAGGGAAAAAGGGAAAGUAUUAUGUUACGCCGUUCGGAUCUGCACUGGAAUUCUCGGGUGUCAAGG	-0.0878
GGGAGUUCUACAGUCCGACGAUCGCAGGAAGUAAAAACAAAUGGAAAUGCUUCGGAUAGUGGCAGGGGUGGGGGUUGCUAAGGAAAGGGUGGGAUAGGAGUGGGUAAAGAGUUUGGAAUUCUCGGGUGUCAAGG	-0.0587
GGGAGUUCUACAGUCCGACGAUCUCCUGUGCUACACAUCGUAUGUACCGAAUCGGGGUUUUUUUGGGGAGGGGAAAAAGGGGAAAGUAUUAUGUUACGCCGUUCGGAUCUGCAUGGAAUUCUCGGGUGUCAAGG	0.105
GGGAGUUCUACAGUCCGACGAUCUCCUGUGCUACACAUCGUAUGUACCGAAUCGGGGUUUUUGGGGUUUUUGGGGUUUGGGGAAAGUAUUAUGUUACGCCGUUCGGAUCUGCAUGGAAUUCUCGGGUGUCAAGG	0.427

Block 2 — target: CCNF, cyclin fold, Cln2 fusion (human); technique: yeast growth competition, sequencing; matrix: yeast; notes: strong parent motif; reference: not given; direction: higher = stronger binding
Starting sequence: RBL1 docking peptide (human); GSAKRRLFGEDPP
Change	normalised enrichment score
GSASRRLFGEDPP [K4S]	5.53
GSAKRQLFGEDPP [R6Q]	4.81
FSAKRRLFGEDPP [G1F]	10.8
GSAKRMLFGEDPP [R6M]	3.84
GAAKRRLFGEDPP [S2A]	5.47
GSAKRRLFGTDPP [E10T]	6.41
ISAKRRLFGEDPP [G1I]	11.1
GSHKRRLFGEDPP [A3H]	2.64
GSAHRRLFGEDPP [K4H]	3.11
GSAKRRLFGSDPP [E10S]	7.3
GVAKRRLFGEDPP [S2V]	5.55
GSAKRRLFGEDRP [P12R]	6.52
GSAKRRLFGELPP [D11L]	6.85
GSAKVRLFGEDPP [R5V]	0.714
GSAKRRLFGWDPP [E10W]	6.68
GSAKRRLFGLDPP [E10L]	7.16
GRAKRRLFGEDPP [S2R]	7.47
GSAKTRLFGEDPP [R5T]	0.887
GSAKRRLFGEDPM [P13M]	6.87
GSAKRHLFGEDPP [R6H]	3.52
GSAKRRLFGEDLP [P12L]	6.82
GSAKRRLFGEDTP [P12T]	7.86
GSAKRRLFGEMPP [D11M]	7.46

Block 3 — technique: RNA Bind-n-Seq; form: RNA; matrix: in vitro; tested at: 365 nM; reference: no-protein control; direction: higher = stronger binding
Target: RNA binding protein fox-1 homolog 2, RRM domain, GST-SBP tag (RBFOX2, Homo sapiens, UniProt O43251-10, residues 100-194)
Notes: natural RNA segment, single round, ends assumed
Residues (chain): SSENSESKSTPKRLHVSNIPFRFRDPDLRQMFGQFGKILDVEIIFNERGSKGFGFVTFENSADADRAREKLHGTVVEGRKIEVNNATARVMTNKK
Sequence	RBNS enrichment (R)
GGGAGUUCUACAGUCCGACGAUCUGUUCUUUCUUCAUCAUAAUUUGAGAUACAUCCUGAGUAUGACUGUCUAACCCUUUCUGUGUGGCAGAAAAAUAUGUUUUCCAGGUAGUUUUUACUACUACAGAGAGUCUUGGAAUUCUCGGGUGCCAA	0.39
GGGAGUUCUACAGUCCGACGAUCUGAGAACCCACCUGACCCAGGCUUGCCCCAAGCAGAGGCUAGAGAAGAGGCUCCUCUUCUCAGUGUUUCCCAAAGGGGCGGCUCUUGUGGUUUCAAAAUCUCUGGCACCAUGGAAUUCUCGGGUGCCAA	0.164
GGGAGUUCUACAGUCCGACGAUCAUUAACCUGUGUCUUAGAAUUGUUGUAUAUAGUUCUUUUAAUAUCCAUAGGGUAUAUUUUUGAAUUUUUUGGUGAGUAUUUGUUGAAUUUGAGAUAGCAUACAGUAGAUGUGGAAUUCUCGGGUGCCAA	1.06
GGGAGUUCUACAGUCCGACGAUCCUCCUACCAUCACCACCAUCACCACCACCCACAAGCACUGCCCCCCUUCCCAUCCGUCCUCCCUCAGGAACCAAGAAGUCCAAGAAGGGACGGGGCCGCUCAGGGCGUUAUGGAAUUCUCGGGUGCCAA	0.686
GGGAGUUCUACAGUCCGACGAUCAACACCUCCCCUCCCCCUCACUGUAGCCUUCGGCAACUGCGCCAAUCCCUUUAUACAAAGAAAAUAAAAGUAAGGCAUAUAAAUUUCCUCCAGCAAGCAAAUCUUGUGGGUGGAAUUCUCGGGUGCCAA	0.609
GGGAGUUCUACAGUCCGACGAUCGGAGACUGUCUGGUGUCAUGACUGAAUCGCCACCUCUCUGGAAGGUGUACCGUCCUCAGGAAGCCAGAAGGUUUUGUUUUGUUUUUUUCUAUGGUUCUCAUUUUCACCCUUGGAAUUCUCGGGUGCCAA	1.12
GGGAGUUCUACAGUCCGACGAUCACUUUCAGAUUCCUGUGGAAUUGUGAAUUCAUACUAAGCUUUCUGUGCAGUCUCACCAUUUGCAUCACUGAGGAUGAAACUGACUUUUGUCUUUUGGAGAAAAAAAACUGUGGAAUUCUCGGGUGCCAA	0.412
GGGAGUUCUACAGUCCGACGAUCGUGUGUGUAUGCGGUCUGUAACUAUUGCCAUAUAAAUAAAAAAUCCUGUUGCACUAGUGUCCUGCCAUCCCACUGCCACUGAUUCUUUCCUGUGUAAAUUCUGUGUGUGCUGGAAUUCUCGGGUGCCAA	1.45

Block 4 — technique: DHFR PCA, deep sequencing; matrix: yeast; with: (+)-ABA 0 µM; reference: wild-type fitted maximum; direction: higher = stronger binding
Target: ABI1, truncated, D143A, DHFR fusion (Arabidopsis thaliana)
Notes: methotrexate growth selection, single substitutions
Starting sequence: PYL1, truncated, DHFR fusion (Arabidopsis thaliana); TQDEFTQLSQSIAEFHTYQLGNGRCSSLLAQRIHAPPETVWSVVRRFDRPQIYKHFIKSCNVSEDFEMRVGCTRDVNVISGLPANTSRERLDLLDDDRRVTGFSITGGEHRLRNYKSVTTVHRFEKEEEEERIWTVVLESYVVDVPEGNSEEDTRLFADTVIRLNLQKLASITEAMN; partner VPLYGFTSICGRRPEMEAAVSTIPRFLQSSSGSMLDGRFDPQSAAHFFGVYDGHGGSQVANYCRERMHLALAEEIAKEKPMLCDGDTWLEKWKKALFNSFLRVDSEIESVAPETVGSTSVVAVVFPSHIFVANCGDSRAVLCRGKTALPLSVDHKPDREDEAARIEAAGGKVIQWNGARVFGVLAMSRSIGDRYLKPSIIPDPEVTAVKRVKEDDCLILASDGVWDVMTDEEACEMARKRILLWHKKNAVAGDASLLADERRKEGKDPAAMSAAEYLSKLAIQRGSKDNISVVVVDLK
Change	relative binding score [%]
V76D	2.54
I52D	32.7
R32I	31.2
L8M	0.489
L20M	25.1
G107S	29.5
E64K	46
I12H	1.51
A175T	17.8
E139C	5.02
I52C	10.1
E64N	24.8
R113A	11
P50E	1.33
V161C	57.8
R111K	11.6
D159K	-4.07

Further values, each from its own experiment
Molecule	target	assay	system	conditions	scale	quantity	result
PhoQ, residues 284 288 289 292 302 303 NLALSC	PhoP, residues 12 14 15 18 19 NQCAL (Escherichia coli, UniProt P23836)	Sort-seq, item: YFP reporter	E. coli	PhoQ-PhoP variant library, with: 10 µM Mg2+	reference: high Mg2+ state, higher = stronger signaling	fold induction	0.94
